# Results pooled from the literature.
# Every numbered part comes from another study and shows a few of its results, in no order. Positions count from the first letter of the parent shown.

# Set 1 — target: CREBL2, bZIP domain (human); technique: DHFR protein complementation; sample: yeast; reference: wild-type JUN-FOS pair; direction: higher = stronger binding
# Setting: single substitutions, most at no-binding floor
# Starting sequence: JUN, bZIP domain (human); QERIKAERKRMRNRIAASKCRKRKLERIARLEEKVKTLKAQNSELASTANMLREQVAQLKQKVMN; partner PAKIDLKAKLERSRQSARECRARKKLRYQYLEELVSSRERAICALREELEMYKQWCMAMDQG
Change,binding fitness [natural log]
A46W,-1.42
M51C,-1.5
V56F,-1.49
E32L,-1.41
V56G,-1.55
T48Y,-1.52
K36R,-1.42
E32G,-1.47

# Set 2 — technique: protein-binding microarray; form: double-stranded DNA, one strand shown; sample: in vitro; concentration: not given; direction: higher = stronger binding
# Target: Protein C-ets-1 (ETS1, Homo sapiens, UniProt P14921, residues 1-441, full length assumed)
# Sequence of UniProt P14921 (whole entry, looked up): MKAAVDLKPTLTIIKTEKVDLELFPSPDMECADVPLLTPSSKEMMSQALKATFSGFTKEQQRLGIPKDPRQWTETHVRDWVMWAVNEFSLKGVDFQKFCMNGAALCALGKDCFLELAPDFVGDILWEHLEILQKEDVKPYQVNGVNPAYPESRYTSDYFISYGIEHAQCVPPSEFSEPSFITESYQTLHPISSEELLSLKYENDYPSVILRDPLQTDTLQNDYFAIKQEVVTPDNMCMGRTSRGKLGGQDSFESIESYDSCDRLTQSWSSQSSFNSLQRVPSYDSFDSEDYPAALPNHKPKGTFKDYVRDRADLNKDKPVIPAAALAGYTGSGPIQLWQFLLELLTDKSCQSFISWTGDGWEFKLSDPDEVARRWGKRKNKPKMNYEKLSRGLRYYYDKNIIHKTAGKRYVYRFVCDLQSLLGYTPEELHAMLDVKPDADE
# Setting: k-mer, scored over probes, only values ≥0.25
Oligonucleotide,E-score
CGGGGAAC,0.334
GCGGAAGC,0.477
GTCCGTCA,0.286
GTTTCCGA,0.416
AGTATTTC,0.253
GACTTCCC,0.416
TCCGGAAA,0.481
TAGGAAGA,0.305

# Further values, each from its own experiment
# HCM1 DNA-binding domain: Forkhead transcription factor HCM1, DNA-binding domain (HCM1, Saccharomyces cerevisiae, UniProt P25364, residues 41-213)
# Sequence of UniProt P25364 (41-213, looked up): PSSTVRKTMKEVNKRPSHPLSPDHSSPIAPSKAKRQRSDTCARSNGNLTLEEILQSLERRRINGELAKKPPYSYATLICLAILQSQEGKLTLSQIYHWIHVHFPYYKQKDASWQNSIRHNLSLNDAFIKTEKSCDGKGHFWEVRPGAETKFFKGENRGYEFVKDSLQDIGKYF
# P1: viral docking peptide; KGVKRKLFAEDSS; partner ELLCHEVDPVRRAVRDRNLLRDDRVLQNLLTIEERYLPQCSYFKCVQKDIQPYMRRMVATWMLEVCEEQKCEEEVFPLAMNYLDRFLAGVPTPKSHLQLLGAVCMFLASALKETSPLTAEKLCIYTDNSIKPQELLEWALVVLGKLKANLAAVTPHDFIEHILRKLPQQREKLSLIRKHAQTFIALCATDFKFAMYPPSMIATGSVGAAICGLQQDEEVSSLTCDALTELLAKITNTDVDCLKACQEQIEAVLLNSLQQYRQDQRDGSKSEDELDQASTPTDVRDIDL
Molecule,target,test,test system,conditions,scale,endpoint,value
AAAAACA,HCM1 DNA-binding domain,SELEX-seq,"double-stranded DNA, one strand shown, in vitro","not given, 7-bp core, flanks averaged","reference: best-binding core, lower = stronger binding",relative binding free energy,0.902 ddG/RT
P1 K6V,"CCND2, cyclin fold, Cln2 fusion (human)","yeast growth competition, sequencing",yeast,weak parent motif,"reference: not given, higher = stronger binding",normalised enrichment score,0.0313
CAAAACA,HCM1 DNA-binding domain,SELEX-seq,"double-stranded DNA, one strand shown, in vitro","not given, 7-bp core, flanks averaged","reference: best-binding core, lower = stronger binding",relative binding free energy,0.783 ddG/RT

# A few entries again (set 2):
Oligonucleotide,E-score
GCGGAAGC,0.477
GTCCGTCA,0.286
GTTTCCGA,0.416
